Assay results of several laboratories.
Parts stem from different laboratories: compare values within a part only. Changes are numbered by the printed parent chain.

Series 1
Target: CCNA1, cyclin fold, Cln2 fusion (human)
Technique: yeast growth competition, sequencing
Medium: yeast
Notes: weak parent motif
Reference: not given
Reading: higher = stronger binding
Parent: SLBP docking peptide (human); ARYKRKLLINDFG
Change | normalised enrichment score
A1F | 0.304
K4V | 0.454
I9A | 0.422
L8Q | 0.314
G13Q | 0.251
A1N | 0.348
G13T | 0.219
F12P | 0.377
I9C | 0.443
I9W | 0.405
G13I | 0.302
I9Y | 0.552
N10F | 0.31
K4T | -0.00512
R5Y | -0.0134
L7M | 0.394
A1Q | 0.00704

Series 2
Target: ABI1, truncated, D143A, DHFR fusion (Arabidopsis thaliana)
Technique: DHFR PCA, deep sequencing
Medium: yeast
Notes: methotrexate growth selection, single substitutions
Added: (+)-ABA 1.4 µM
Reference: wild-type fitted maximum
Reading: higher = stronger binding
Parent: PYL1, truncated, DHFR fusion (Arabidopsis thaliana); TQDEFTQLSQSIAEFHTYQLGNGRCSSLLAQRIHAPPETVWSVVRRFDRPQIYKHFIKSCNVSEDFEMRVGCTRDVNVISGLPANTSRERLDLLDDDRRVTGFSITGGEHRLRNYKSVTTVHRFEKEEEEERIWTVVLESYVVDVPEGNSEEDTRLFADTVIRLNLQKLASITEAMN; partner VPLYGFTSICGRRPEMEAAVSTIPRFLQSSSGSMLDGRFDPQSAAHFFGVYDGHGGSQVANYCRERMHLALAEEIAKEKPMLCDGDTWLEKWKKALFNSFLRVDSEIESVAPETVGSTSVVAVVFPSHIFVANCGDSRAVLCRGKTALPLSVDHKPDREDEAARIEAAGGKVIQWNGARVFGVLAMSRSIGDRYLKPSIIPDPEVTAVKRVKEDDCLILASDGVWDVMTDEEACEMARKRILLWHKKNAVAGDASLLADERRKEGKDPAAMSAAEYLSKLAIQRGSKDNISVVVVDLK
Change | relative binding score
A170V | -6.22%
T86D | 37.5%
V78L | 75.2%
Q167A | 66.5%
V145G | -11.6%
S9G | 50.9%
A84K | 7.19%
I57W | 8.86%
S171D | 57%
V70R | 7.41%
C25R | -13%
A175Y | 8.89%
S140F | -17%
L112W | 5.86%
F47V | 0.385%
T173H | -4.78%
L82A | -0.186%
E174N | 2.87%
K168F | -14.3%

Series 3
Target: RNA binding protein fox-1 homolog 2, RRM domain, GST-SBP tag (RBFOX2, Homo sapiens, UniProt O43251-10, residues 100-194)
Technique: RNA Bind-n-Seq
Molecule type: RNA
Medium: in vitro
Tested at: 365 nM
Notes: natural RNA segment, single round, ends assumed
Reference: no-protein control
Reading: higher = stronger binding
Residues (chain): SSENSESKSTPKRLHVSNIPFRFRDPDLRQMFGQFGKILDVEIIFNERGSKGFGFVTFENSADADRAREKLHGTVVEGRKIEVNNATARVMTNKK
Sequence | RBNS enrichment (R)
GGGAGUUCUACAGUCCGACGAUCCCACAACCAGGAAGAACAAAUCUGGGCAUUGAGCAAGCUAUGAGGGUCCCCGGGAGCACACGAACCCUGCCAGGCCCCCGCUGGCUCCUCCAGGCACGUCCCGGACCUGUUGGAAUUCUCGGGUGCCAA | 0.63
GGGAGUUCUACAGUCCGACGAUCUAGGACCUAAGGUGGUCCUCAUAAACUCCUGGGGGAAGCUGGGAGCAACUUCCUGGGAAGCUAAUUUAUUUGUCUAAAGGGUGGUGUGGGCAUCACCACCCUUGUUUGAUUGGAAUUCUCGGGUGCCAA | 0.793
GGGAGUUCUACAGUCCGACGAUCACAUUACAAAGGAUUUGUUUGCUUAGCUGUCAACAAAAAGAAAACCUGAGGGAGCAUUCAGCAAGUCAGUUUGAGAUUAUUUUUCCUUUUCUACGUUGGAACGUGCCCCGUGGAAUUCUCGGGUGCCAA | 0.374
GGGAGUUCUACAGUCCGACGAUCAGCAGUUAUAUUUUAAUGCAUUUCAGUGUUUAUAGUAGAAGUUUAGUGGAUAAAACUUUAAGUCCAAUAACUUGGGGGUCAAAUGCUAAUGUUUUAUUCAAUGUAAAGGAUGGAAUUCUCGGGUGCCAA | 0.662
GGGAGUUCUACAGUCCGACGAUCACCCAGCCCCUCAUCCACCUGGAAUUUGAGGAGGAGAAAUGAAAAAACAGUGUGUCACUGGUGUCACACUGGCAUCAUGGCACUGGCGUCAUGGCACUAAGCCACUCAGAUGGAAUUCUCGGGUGCCAA | 0.2
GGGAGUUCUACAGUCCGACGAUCUUAAAUCAGUACAGUACCUGUACCUGCACGGUCACCCGCUCCGUGUGUCGCCCUAUAUUGAGGGCUCAAGCUUUCCCUUGUUUUUUGAAAGGGGUUUAUGUAUAAAUAUAUGGAAUUCUCGGGUGCCAA | 0.63
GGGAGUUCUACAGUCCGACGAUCAGAACCUGAAAGUGCAUACUGAGUUGAGUGUUCAGGCUGCUGUCCUUGGUCUCUCUGCAGUUCUGGGGACCCAACCAAGAGUCACGUGUCUAGGCCAGUGCUUUACCACUUGGAAUUCUCGGGUGCCAA | 0.351
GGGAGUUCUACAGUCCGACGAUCCCAAACUAGAUACCGAAAGGGCUCCUCAUUUGUCUCUUUUGUCCCAUUGUGGGCAUAUGGUGGGCUCCUUGAGAGGAGGGAGUCUCAGCUGGGGCCUGGCUGCAGAGACCUGGAAUUCUCGGGUGCCAA | 0.557

Series 4
Target: Ras GTPase-activating protein-binding protein 1, RRM domain (G3BP1, Homo sapiens, UniProt Q13283)
UniProt Q13283, sequence (whole entry, looked up): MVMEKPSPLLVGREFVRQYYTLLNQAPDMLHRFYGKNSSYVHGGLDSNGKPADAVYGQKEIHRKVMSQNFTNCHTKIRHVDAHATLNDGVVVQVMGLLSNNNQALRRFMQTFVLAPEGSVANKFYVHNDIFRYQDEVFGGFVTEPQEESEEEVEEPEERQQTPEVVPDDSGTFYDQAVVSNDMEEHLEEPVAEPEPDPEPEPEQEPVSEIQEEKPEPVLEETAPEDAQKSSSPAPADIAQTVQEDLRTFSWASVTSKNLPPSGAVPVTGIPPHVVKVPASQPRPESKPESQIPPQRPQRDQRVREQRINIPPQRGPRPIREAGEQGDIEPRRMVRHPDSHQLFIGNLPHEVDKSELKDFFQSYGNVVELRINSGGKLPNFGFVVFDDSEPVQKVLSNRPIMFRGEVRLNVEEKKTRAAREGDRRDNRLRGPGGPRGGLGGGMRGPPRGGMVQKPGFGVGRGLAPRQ
Technique: RNA Bind-n-Seq
Molecule type: RNA
Medium: in vitro
Tested at: 1 µM
Notes: whole 134-nt RNA, ends assumed
Added: 150 mM KCl
Reference: input library
Reading: higher = stronger binding
Sequence | log2 enrichment
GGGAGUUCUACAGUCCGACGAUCCUGUGCUACACAUCGUAUGUACCGAAUCGGGGUUUGGGGAAAAAAAGGGGUUUUUUUGGGGAAAGUAUUAUGUUACGCCGUUCGGAUCUGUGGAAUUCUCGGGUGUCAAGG | 1.06
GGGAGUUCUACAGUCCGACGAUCUAACUUUAGAGGAGGAUCUGAUGGAUAUGGCAGUGGACGUGGAUUUGGGGAUGGCUAUAAUGGGUAUGGAGCAGGACCUGGAGGUGGCAAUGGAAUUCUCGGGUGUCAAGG | -0.331
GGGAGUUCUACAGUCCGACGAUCUCCUGUGCUACACAUCGUAUGUACCGAAUCGGGUUUUUUGGGGUUUUUUGGUUUUUUGGGAAAGUAUUAUGUUACGCCGUUCGGAUCUGCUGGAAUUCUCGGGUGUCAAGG | -0.084
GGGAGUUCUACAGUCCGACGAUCUCAAGUCCUGUGCUACACAUCGUAUGUACCGAAUCGGUUUUUUUGGAAAGGUGGAAAGUAUUAUGUUACGCCGUUCGGAUCUGCACUUCCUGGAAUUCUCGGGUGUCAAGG | -0.164
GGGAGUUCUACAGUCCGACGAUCCAAGUCCUGUGCUACACAUCGUAUGUACCGAAUCGGAAAGGUUUGGUUUUUUUGGAAAGUAUUAUGUUACGCCGUUCGGAUCUGCACUUCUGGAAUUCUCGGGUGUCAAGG | -0.323
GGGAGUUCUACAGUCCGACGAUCUCCUCAAGUCCUGUGCUACACAUCGUAUGUACCGAAUCGGGUGGUGGGGUGGAAAGUAUUAUGUUACGCCGUUCGGAUCUGCACUUCCAGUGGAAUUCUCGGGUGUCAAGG | -0.1
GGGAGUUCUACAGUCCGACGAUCACCAUGCAGGUGGGCAUCUUUGGGAAGUGGGGCAAGGGGGGGAUAGGGACGGGGGUAACACUUUGGGAACAGGUGGUCCCAGGUCGUUUCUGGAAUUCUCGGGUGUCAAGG | 0.922
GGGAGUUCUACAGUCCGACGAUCUGCUGGCAGCCAAGCAGCAGCAGGAGAUGCUGGCAGCCAAGCGGCAGCAGGAGCUGGAGCAGCAGCGGCAGCGGGAGCAGCAGCGGCAGGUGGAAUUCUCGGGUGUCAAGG | -0.511
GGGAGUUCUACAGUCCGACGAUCACCAUGCAGGUGGGCAUCUUUAGGAAGUGGGGCAAGGGGGGGAUAGGGAGGGGGGUAACACUUUGGGAACAGGUGGUCCCAGGUCGUUUCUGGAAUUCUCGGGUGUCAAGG | -0.388

A few entries again (series 2):
Change | relative binding score
T173H | -4.78%
S140F | -17%
E174N | 2.87%
Q167A | 66.5%
